Published values collected from several papers.
Parts stem from different laboratories: compare values within a part only.

Series 1 — technique: protein binding microarray; form: double-stranded DNA, one strand shown; sample: in vitro; concentration: not given; reference: not given; direction: higher = stronger binding
Target: Histone acetyltransferase KAT6A, winged helix 2, GST fusion (KAT6A, Homo sapiens, UniProt Q92794, residues 85-181)
Notes: 8-mer, flanks averaged, mean of 2 arrays, mostly near background
Residues (chain): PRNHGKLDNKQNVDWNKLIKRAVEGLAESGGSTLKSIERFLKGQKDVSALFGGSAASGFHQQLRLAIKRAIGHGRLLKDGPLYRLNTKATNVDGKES
Oligonucleotide	E-score
CTAAGTTA	0.0337
GCTGCCTA	-0.0336
GGAAACCC	0.162
ACCAACAA	0.169
AAGCCCAC	0.0503
AGGCGGTA	0.125
CTGATGGC	-0.0377
CACATCTC	-0.0915
AGATTCCC	-0.122
CCCGTAAG	-0.0963
ATACCACG	-0.0539
ATTTGGGA	0.0048
AAAAAAAA	0.23
AGTTAGGG	-0.0478
CCTCCTCG	0.0165
AGCAAAGG	0.0457
GACATCTC	-0.14
ACGGTGTG	-0.0334
CTAGAGGC	-0.239

Series 2 — technique: RNA Bind-n-Seq; form: RNA; sample: in vitro; concentration: 365 nM; reference: no-protein control; direction: higher = stronger binding
Target: RNA binding protein fox-1 homolog 2, RRM domain, GST-SBP tag (RBFOX2, Homo sapiens, UniProt O43251-10, residues 100-194)
Notes: natural RNA segment, single round, ends assumed
Target sequence (chain): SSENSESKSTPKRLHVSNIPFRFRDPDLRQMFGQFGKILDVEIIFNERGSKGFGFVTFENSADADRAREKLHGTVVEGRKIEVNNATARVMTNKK
Oligonucleotide	RBNS enrichment (R)
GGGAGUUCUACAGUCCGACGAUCGGUUCUUGUUUGAAAUUUUCAGUUCUCUUUAUCUUCCCAGUACCUCUUGGUCCUCAUAAUGGGCAAAGGAUACAACGAAGGCAGGUUGUAUAGGGGUUAUAGUGGGGAAGUGGAAUUCUCGGGUGCCAA	0.603
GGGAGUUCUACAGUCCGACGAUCUUGGUGCUGCUAAGUUUAGCCAUUAUGGUUUUUCCUUUCUCUCUCUUAAGCCUUAUUCUUCAACUAAAAGAUGAGGAUUAAGAGCAAGAAGUUGGGGGGGAUGUGAAAAUUGGAAUUCUCGGGUGCCAA	0.299
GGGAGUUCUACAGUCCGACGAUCUUAGCUUGUGCGUGUCAAAAGAAGGAACAGCUCGUUCUGCUUCCUGCUGAGUCGGUGAAUUCUUUGCUUUCUAAACUCUUCCAGAAAGGACUGUGAGCAAGAUGAAUUUAUGGAAUUCUCGGGUGCCAA	0.879
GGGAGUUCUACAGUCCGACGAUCACUUUGCCAGCAGCUUCUAGCCUUAAAACCCCAGGAACUUCUGCAAAUAUGAAUGGACCCAUUUCAAGAACAAGUUCUAGUAUCCCUGCUAAUAAUCCUUUAGUUACUCAUGGAAUUCUCGGGUGCCAA	0.492
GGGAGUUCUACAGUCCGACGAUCACAGUUAUGUGGUGGGUCCCUGCUAAAAUCUCCCUGACCACCUGAGGGCAUAAAGCAUGUGUCUUAUCUCUGGUCUCAUGGUGAUCUUUGCUGGGGAGACAAUGUGGGAUUGGAAUUCUCGGGUGCCAA	2.59
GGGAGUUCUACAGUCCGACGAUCGAACAACAAUGUAAAACCUGUUCUGUCACAAAUGUUCCUGAAAGCACCACAGCUACUCAAGAAGAUCAAAUUCAGGACAUAAACUUUAUUGAACAUAAUAACCAGUGUUUUGGAAUUCUCGGGUGCCAA	0.304
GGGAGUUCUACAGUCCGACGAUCCAGACGCAUUGCCCGGUACUAGGAAGGAGUGAGGUGUGUUCCCACCGUACACUUCCCACACGAGCUGCGGCUGCCAGCCUCGGGCCAUCAGCCUAGGAGAGCAGAUGCAGUGGAAUUCUCGGGUGCCAA	0.341
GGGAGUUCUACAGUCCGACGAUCAGGAAUUGCUGGGCAGGUCUCCGACUAAAGGUCUUAUGAUGAAAAGGAAGAAACAAGCCCCCAACACAAGGCUCUGAUACUACUGGUAAAUGUAGGAGAGAAUUAAGAAUUGGAAUUCUCGGGUGCCAA	0.73

Series 3 — technique: protein-binding microarray; form: double-stranded DNA, one strand shown; sample: in vitro; concentration: 250 nM; notes: 60-bp whole probe; together with: salmon DNA 0.4 mg/ml; reference: random background probes; direction: higher = stronger binding; shared flanks, not repeated: GCCTAGCAC … GTCTTGATTCGCTTGACGCTGCTG
Target: Interferon regulatory factor 7, full length, phosphomimetic (IRF7, Homo sapiens, UniProt Q92985, residues 1-503, S101K/S471D/S472D/S475D/S476D/S477D/S483D/S484D/S487D)
Sequence of UniProt Q92985 (whole entry, unmodified, looked up): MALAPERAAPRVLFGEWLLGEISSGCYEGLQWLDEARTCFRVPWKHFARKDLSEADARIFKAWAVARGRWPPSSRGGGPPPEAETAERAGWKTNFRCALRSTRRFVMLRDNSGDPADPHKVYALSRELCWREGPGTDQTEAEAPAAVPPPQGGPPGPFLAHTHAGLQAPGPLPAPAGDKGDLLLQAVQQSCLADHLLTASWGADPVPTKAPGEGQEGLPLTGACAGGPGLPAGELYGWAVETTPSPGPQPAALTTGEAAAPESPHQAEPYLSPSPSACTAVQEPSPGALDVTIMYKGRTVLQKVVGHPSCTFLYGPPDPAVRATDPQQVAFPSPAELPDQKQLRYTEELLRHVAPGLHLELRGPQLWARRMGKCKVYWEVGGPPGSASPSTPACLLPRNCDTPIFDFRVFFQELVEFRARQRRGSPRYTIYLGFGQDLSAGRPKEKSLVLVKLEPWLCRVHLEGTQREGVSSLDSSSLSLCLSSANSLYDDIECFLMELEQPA
Oligonucleotide	log fluorescence [z-score]
TCAATTTTCTAAATTCCACTGTGCTAG	0.682
TCACCTTTGTTTTTTTCACTGTGCTAG	0.739
GACGATCTCGGTTTCGGGACGTGCTAG	3.64
TCAGGACTGGACTTTCGGTTAGTGCTA	0.529
GACGATATCGGGTATCGAGAAGTGCTA	-0.194
TTAGGTTTCGGGTTTCGGATAGTGCTA	12.2
TCTCTGCTACCCTTTGAAAGTGTGCTA	-0.325
TTAGGTTTCGACTTTCGGGTAGTGCTA	10.8
GACGATATCAGTCTCGAGACGTGCTAG	0.292
TTTGCTTTCCTTCATGCACTGTGCTAG	0.468
GTGATGTGAGGGGAGAGGGAGTGCTAG	0.0588
GACGGTTCCGGTTTAGGGACGTGCTAG	6.39
GACGGACTGGGATTGGGGACGTGCTAG	-0.452
TTAGAATTGAGTATCGATTAGTGCTAG	0.672
GACGATATCACTATCGAGACGTGCTAG	0.0255
GACGGTTTCGACTATCGGGAAGTGCTA	6.39
TGTGCTTTCCTCGTGATGCTGTGCTAG	0.591
GAATGTCTTCCCCTCTCTTTGTGCTAG	0.384
GGCGGTTTCGACTTTCGGGACGTGCTA	10.6

Series 4 — technique: RNA Bind-n-Seq; form: RNA; sample: in vitro; concentration: 1 µM; notes: whole 134-nt RNA, ends assumed; together with: 150 mM KCl; reference: input library; direction: higher = stronger binding
Target: Ras GTPase-activating protein-binding protein 1, C-terminal RGG region (G3BP1, Homo sapiens, UniProt Q13283)
Sequence of UniProt Q13283 (whole entry, looked up): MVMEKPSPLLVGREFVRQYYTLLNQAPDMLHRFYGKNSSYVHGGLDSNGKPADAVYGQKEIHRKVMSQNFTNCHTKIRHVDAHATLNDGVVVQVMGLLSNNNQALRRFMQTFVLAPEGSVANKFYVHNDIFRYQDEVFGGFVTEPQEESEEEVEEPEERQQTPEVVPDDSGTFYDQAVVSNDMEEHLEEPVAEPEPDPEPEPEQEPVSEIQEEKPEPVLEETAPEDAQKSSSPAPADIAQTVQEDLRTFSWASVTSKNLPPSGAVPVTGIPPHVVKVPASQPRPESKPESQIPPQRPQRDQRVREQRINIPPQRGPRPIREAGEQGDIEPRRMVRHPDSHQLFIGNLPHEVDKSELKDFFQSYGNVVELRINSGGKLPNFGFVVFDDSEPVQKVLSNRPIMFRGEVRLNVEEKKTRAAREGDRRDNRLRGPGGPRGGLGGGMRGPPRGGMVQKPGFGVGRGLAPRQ
Oligonucleotide	log2 enrichment
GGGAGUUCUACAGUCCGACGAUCUGGGAGGUGGAUUUUGUUUAUUUUUUUAGCUCAUUUCCAGGGGUGGGAAUUUUUUUUUAAUCUGUGUCAUGAAUAAAGUUGUUUUUGAAAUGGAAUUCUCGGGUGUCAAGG	3.72
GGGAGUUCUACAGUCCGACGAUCUGGGAGGUGGAUUUUGUUAAUUUUUUUAGCUCAUUUCCAGGGGUGGGAAUUUUUUUUUAAUAUGUGUCAUGAAUAAAGUUGUUUUUGAAAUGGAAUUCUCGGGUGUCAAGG	1.75
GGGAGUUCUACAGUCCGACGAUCUGGGAGGUGGAUUUUGUUUAUUUUUUUAGCUCAUUUCCAGCGGUGGGAAUUUUUUUUUAAUAUGUGUCAUGAAUAAAGUUGUUUUUGAAAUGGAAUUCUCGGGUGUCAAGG	3.86
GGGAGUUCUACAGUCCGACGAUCCAAGUCCUGUGCUACACAUCGUAUGUACCGAAUCGGGAAAGGGAAAGGAAAGGGGAAAGUAUUAUGUUACGCCGUUCGGAUCUGCACUUCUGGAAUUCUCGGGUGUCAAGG	-0.16
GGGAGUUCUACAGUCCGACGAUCGCAGGAAGUAAAAACAAAUGGAAAUGCUUCGGAUAAUGGCAGGGGUGGGGGUUGCUAAGGAAAGGGUGGGAUGGGAGUGGGUAAAGAGUUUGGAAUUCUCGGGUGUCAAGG	1.7
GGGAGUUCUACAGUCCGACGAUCUCAAGUCCUGUGCUACACAUCGUAUGUACCGAAUCGGGCCCGGGGCCCGGCCCGGAAAGUAUUAUGUUACGCCGUUCGGAUCUGCACUUCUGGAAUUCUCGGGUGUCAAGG	-1.81
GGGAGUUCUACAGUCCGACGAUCGUCCUGUGCUACACAUCGUAUGUACCGAAUCGGGAAAAAAAGGGUUUUUUUGGGUGGGAAAGUAUUAUGUUACGCCGUUCGGAUCUGCACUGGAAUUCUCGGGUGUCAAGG	0.048
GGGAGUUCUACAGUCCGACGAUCUUCAAAGCGUUCGAAUGAGGAGACUGAUGACUAUGGGAAGGCGCAGGUAGCCAAAAGCAGCAGCAAGGAAUCCAGGUCAUCCAAGCUCCAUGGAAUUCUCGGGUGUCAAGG	-2.35
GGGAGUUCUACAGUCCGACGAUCCACAUACAACACGCACCCACACAGACACAGAGGGAAGGGGUUGGGAUGGGGACAGGGUGCACAGCAGGGCGGGGUAGGACCCCAGCCCCUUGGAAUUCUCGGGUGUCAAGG	-0.212

For quick reference, copied from above (series 1):
Oligonucleotide	E-score
GGAAACCC	0.162
AGTTAGGG	-0.0478
AAGCCCAC	0.0503
CCCGTAAG	-0.0963
ACCAACAA	0.169
